Published values of several laboratories.
± marks the error that the study gave.
Cell line: Caco-2

SMILES = CC(=O)CC(c1ccccc1)c1c(O)c2ccccc2oc1=O (centres unmarked); conditions = 10 µM, 2 h; endpoint = Papp A-B; result = > 1 ×10⁻⁶ cm/s
SMILES = COc1nc(NCc2cn(-c3ccc(C(=O)Nc4ccc(Cl)cc4)cc3)nn2)nc(OC)n1; test = MTT; scale = baseline: normal rat colonocytes over Caco-2; endpoint = selectivity ratio; result = 0.19
SMILES = CCOC(=O)c1ccc(O)cc1; conditions = 5 µM, 60 min, A-B direction; endpoint = hydrolysed compound; result = 64.6 ± 6.5%
SMILES = COc1nc(NCc2cn(-c3ccc(C(=O)Nc4ccc(F)cc4)cc3)nn2)nc(OC)n1; test = MTT; scale = baseline: normal rat colonocytes over Caco-2; endpoint = selectivity ratio; result = 0.1
SMILES = CC(C)NCC(O)COc1cccc2ccccc12 (centres unmarked); conditions = 5 µM, 2 h, apical to basolateral; endpoint = recovery; result = 66.8%
SMILES = CC(C)C[C@@H]1NC(=O)CN(C)C(=O)[C@H](Cc2ccccc2)NCC2=CC=C(CNC1=O)O2; endpoint = Papp; result = 17.7 ×10⁻⁶ cm/s
SMILES = Nc1n[nH]c2nc(-c3cccc(O)c3)cc(-c3cc4ccccc4nc3N3CCOCC3)c12; test = MTT; conditions = 72 h, 10% FBS; scale = baseline: WI-38 EC50 over Caco-2 IC50; endpoint = selectivity ratio; result = 0.47
SMILES = COc1ccc(C(=O)Nc2ccc(-n3cc(CNc4nc(OC)nc(OC)n4)nn3)cc2)cc1; test = MTT; scale = baseline: normal rat colonocytes over Caco-2; endpoint = selectivity ratio; result = 0.01
SMILES = CC[C@@H]1C(=O)N(C)c2cnc(Nc3ccc(C(=O)NC4CCN(C)CC4)cc3OC)nc2N1C1CCCC1; conditions = 10 µM, 2 h; endpoint = Papp A-B; result = > 1 ×10⁻⁶ cm/s
SMILES = C[C@@H]1CCN(C(=O)CC#N)C[C@@H]1N(C)c1ncnc2[nH]ccc12; conditions = 5 µM, 120 min; endpoint = Papp B-A; result = 20.3 ×10⁻⁶ cm/s
SMILES = C[C@H]1CN(C)CCN1c1nccc(-c2noc3c2CCC[C@@]32CCCc3sc(N)c(C#N)c32)n1; endpoint = Papp (A to B); result = 20 ×10⁻⁶ cm/s
SMILES = C=CC(=O)Nc1cc(Nc2nccc(-c3cn(C)c4ccccc34)n2)c(OCC(F)(F)F)nc1N(C)CCN(C)C; endpoint = intestinal permeability; result = 0.53 ×10⁻⁶ cm/s
SMILES = CC[C@H](C)C(=O)N1CCC(NC(=O)Nc2ccc(OC(F)(F)F)c(F)c2)CC1; test = Caco-2 permeability; conditions = 10 µM, 60 min, pH 7.4 apical, 7.4 basolateral, mean; scale = apical to basolateral; endpoint = percent recovery; result = 47%
SMILES = Cc1cc(C)c(CNC(=O)c2cc(Cl)c3c(c2C)O[C@@](C)([C@H]2CC[C@H](N(C)C)CC2)O3)c(=O)[nH]1; conditions = 20 µM; endpoint = efflux ratio; result = 48
SMILES = NS(=O)(=O)c1nnc(NC(=O)C2CCCC3(CCCCC3)C2)s1 (centres unmarked); endpoint = Papp B to A; result = 1.5 ×10⁻⁶ cm/s
SMILES = C#Cc1c(F)ccc2cc(O)cc(-c3ncc4c(N5CC6CCC(C5)N6)nc(OC[C@@]56CCCN5C[C@H](F)C6)nc4c3F)c12; conditions = no inhibitor, BCRP (novobiocin) set; endpoint = Papp (B to A); result = 7.84 ×10⁻⁶ cm/s
SMILES = COc1nc(NCc2cn(-c3ccc(NC(=O)c4ccc(Cl)cc4)cc3)nn2)nc(OC)n1; test = MTT; scale = baseline: normal rat colonocytes over Caco-2; endpoint = selectivity ratio; result = 0.02
SMILES = CC(C)C(=O)OCc1cc2[nH]c(=S)n(Cc3cccnc3)c(=O)c2cc1Cl; conditions = 10 µM, 90 min, pH 7.4, 0.1% BSA receiver side; endpoint = Papp (B to A); result = 0.7 ×10⁻⁶ cm/s
SMILES = COc1nc(NCc2cn(-c3ccc(NC(=O)c4ccc(C)cc4)cc3)nn2)nc(OC)n1; test = MTT; scale = baseline: normal rat colonocytes over Caco-2; endpoint = selectivity ratio; result = 0.03
SMILES = CCCOC(=O)c1ccc(O)cc1; conditions = 5 µM, 60 min, A-B direction; endpoint = hydrolysed compound; result = 53.8 ± 2.4%
SMILES = CCOc1cc(-c2nncn2C)ccc1Nc1ncc2cc(C)nc(NCC(C)(C)C)c2n1; conditions = 10 µM; endpoint = Papp(A-B); result = 6.71 ×10⁻⁶ cm/s
SMILES = O=C(Nc1c2c(cc3c1CCC3)CCC2)NS(=O)(=O)/C=C/c1nccs1; conditions = 2 µM, 120 min, pH 7.4; endpoint = Papp(A-B); result = 9.5 ×10⁻⁶ cm/s
SMILES = C=C(F)C(=O)N1CCN(c2nc(OC[C@@H]3CCCN3C)nc3c2CCN(c2cccc4cccc(Cl)c24)C3)C[C@@H]1CC#N; conditions = 13.2 µM; endpoint = apparent permeability; result = 6.84 ×10⁻⁶ cm/s
SMILES = CN(C)C/C=C/C(=O)Nc1cc2c(Nc3ccc(F)c(Cl)c3)ncnc2cc1O[C@H]1CCOC1; conditions = 100 µM, 3 h; endpoint = Papp A-B; result = ~2.6 ×10⁻⁶ cm/s
SMILES = N#C[C@@]1(c2ccc3c(N)ncnn23)O[C@H](CO)[C@@H](O)[C@H]1O; test = bidirectional permeability; conditions = 10 µM, 120 min; scale = basolateral to apical; endpoint = recovery; result = 102%
SMILES = O=c1c2cc(Cl)ccc2[nH]c(=S)n1Cc1cccnc1; conditions = 10 µM, 90 min, pH 7.4, 0.1% BSA receiver side; endpoint = Papp (B to A); result = 14.4 ×10⁻⁶ cm/s
SMILES = CC[C@H]1OC(=O)[C@H](C)[C@@H](O[C@H]2C[C@@](C)(OC)[C@@H](O)[C@H](C)O2)[C@H](C)[C@@H](O[C@@H]2O[C@H](C)C[C@H](N(C)C)[C@H]2O)[C@](C)(O)C[C@@H](C)C(=O)[C@H](C)[C@@H](O)[C@]1(C)O; conditions = 60 min, apical to basolateral; endpoint = mass balance; result = 103 ± 8.5%
SMILES = CCCCC(CC)CNC(=N)NC(=N)NCCCCCCNC(=N)NC(=N)NCC(CC)CCCC (centres unmarked); conditions = 5 µM, 2 h, apical to basolateral; endpoint = recovery; result = < 24.4%
SMILES = NS(=O)(=O)c1nnc(NC(=O)CCC2CC3CCC2C3)s1 (centres unmarked); endpoint = Papp B to A; result = 13.2 ×10⁻⁶ cm/s
SMILES = CC(C)NCC(O)COc1cccc2ccccc12 (centres unmarked); conditions = 2 µM, 120 min, pH 7.4; endpoint = mass balance; result = 83.8%
SMILES = COCCc1ccc(OCC(O)CNC(C)C)cc1 (centres unmarked); conditions = apical to basolateral; endpoint = apparent permeability; result = 33.3 ×10⁻⁶ cm/s
SMILES = Cc1cc(Nc2cc3ncccc3c(N[C@@H]3C[C@H]4CC[C@@H](C3)N4CCC#N)n2)n[nH]1; conditions = 5 µM, 120 min; endpoint = Papp A-B; result = 1.17 ×10⁻⁶ cm/s
SMILES = CCOc1nc(-c2cccc(O)c2)cc(-c2cc3cc(Cl)ccc3nc2N2CCOCC2)c1C#N; test = MTT; conditions = 72 h, 10% FBS; scale = baseline: WI-38 EC50 over Caco-2 IC50; endpoint = selectivity ratio; result = 0.248
SMILES = CO[C@@H](C[C@H]1C(C)=CC[C@@H]2[C@]3(C)C[C@H](O[C@@H]4O[C@@H](C)[C@H](OC(=O)c5cccc(O)c5)[C@@H](O[C@@H]5O[C@H](CO)[C@@H](O)[C@H](O)[C@H]5NC(C)=O)[C@H]4O)[C@@H](O)C(C)(C)[C@H]3CC[C@]21C)[C@H](N)C(=O)O.O=C(O)C(F)(F)F; test = transwell permeability; conditions = 5 µM, 1 h; endpoint = recovery; result = 87%
SMILES = CCCCCCCOC(=O)c1ccc(O)cc1; conditions = 5 µM, 60 min, A-B direction; endpoint = hydrolysed compound; result = 26.2 ± 0.7%
SMILES = CC(=O)N[C@H]1[C@H]([C@H](O)[C@H](O)CO)OC(C(=O)O)=C[C@@H]1N=C(N)N; test = MTT; conditions = 300 and 400 µg/mL, 3 h; endpoint = cytotoxicity; result = not toxic
SMILES = Cc1ccc2[nH]c(=S)n(Cc3cccnc3)c(=O)c2c1; conditions = 10 µM, 90 min, pH 7.4, 0.1% BSA receiver side; endpoint = Papp (B to A); result = 29.6 ×10⁻⁶ cm/s
SMILES = CCCCCOC(=O)c1ccc(O)cc1; conditions = 5 µM, 60 min, A-B direction; endpoint = hydrolysed compound; result = 35.8 ± 2%

A few entries again:
SMILES = C[C@H]1CN(C)CCN1c1nccc(-c2noc3c2CCC[C@@]32CCCc3sc(N)c(C#N)c32)n1; endpoint = Papp (A to B); result = 20 ×10⁻⁶ cm/s
SMILES = CC(C)C(=O)OCc1cc2[nH]c(=S)n(Cc3cccnc3)c(=O)c2cc1Cl; conditions = 10 µM, 90 min, pH 7.4, 0.1% BSA receiver side; endpoint = Papp (B to A); result = 0.7 ×10⁻⁶ cm/s
SMILES = C[C@@H]1CCN(C(=O)CC#N)C[C@@H]1N(C)c1ncnc2[nH]ccc12; conditions = 5 µM, 120 min; endpoint = Papp B-A; result = 20.3 ×10⁻⁶ cm/s
SMILES = CC(=O)N[C@H]1[C@H]([C@H](O)[C@H](O)CO)OC(C(=O)O)=C[C@@H]1N=C(N)N; test = MTT; conditions = 300 and 400 µg/mL, 3 h; endpoint = cytotoxicity; result = not toxic
SMILES = CC(C)NCC(O)COc1cccc2ccccc12 (centres unmarked); conditions = 2 µM, 120 min, pH 7.4; endpoint = mass balance; result = 83.8%
SMILES = O=c1c2cc(Cl)ccc2[nH]c(=S)n1Cc1cccnc1; conditions = 10 µM, 90 min, pH 7.4, 0.1% BSA receiver side; endpoint = Papp (B to A); result = 14.4 ×10⁻⁶ cm/s
